Results of several laboratories.
Each numbered part is a random draw from the data of one study; scales do not carry over between parts. “And” joins repeats or separate records; there may be more than shown.
UniProt Q05655, sequence (whole entry, looked up): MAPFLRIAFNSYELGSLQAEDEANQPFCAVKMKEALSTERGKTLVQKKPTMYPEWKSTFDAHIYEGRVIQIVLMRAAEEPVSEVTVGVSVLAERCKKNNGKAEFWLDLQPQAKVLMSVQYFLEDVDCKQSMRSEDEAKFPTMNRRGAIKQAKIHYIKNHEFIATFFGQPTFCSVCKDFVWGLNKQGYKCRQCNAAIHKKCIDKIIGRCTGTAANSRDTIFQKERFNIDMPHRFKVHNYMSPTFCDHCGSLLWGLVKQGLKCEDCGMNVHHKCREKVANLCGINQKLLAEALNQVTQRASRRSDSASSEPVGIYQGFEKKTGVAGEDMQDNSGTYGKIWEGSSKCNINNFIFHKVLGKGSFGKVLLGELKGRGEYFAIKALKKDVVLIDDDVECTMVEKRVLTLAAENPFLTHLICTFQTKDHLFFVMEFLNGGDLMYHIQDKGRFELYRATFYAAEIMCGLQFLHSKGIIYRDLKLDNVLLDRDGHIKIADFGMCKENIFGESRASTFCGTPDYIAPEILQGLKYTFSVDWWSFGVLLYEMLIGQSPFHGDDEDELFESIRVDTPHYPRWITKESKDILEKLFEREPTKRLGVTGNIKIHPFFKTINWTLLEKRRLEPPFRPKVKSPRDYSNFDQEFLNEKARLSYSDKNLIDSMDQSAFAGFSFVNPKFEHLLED
UniProt Q15208, sequence (whole entry, looked up): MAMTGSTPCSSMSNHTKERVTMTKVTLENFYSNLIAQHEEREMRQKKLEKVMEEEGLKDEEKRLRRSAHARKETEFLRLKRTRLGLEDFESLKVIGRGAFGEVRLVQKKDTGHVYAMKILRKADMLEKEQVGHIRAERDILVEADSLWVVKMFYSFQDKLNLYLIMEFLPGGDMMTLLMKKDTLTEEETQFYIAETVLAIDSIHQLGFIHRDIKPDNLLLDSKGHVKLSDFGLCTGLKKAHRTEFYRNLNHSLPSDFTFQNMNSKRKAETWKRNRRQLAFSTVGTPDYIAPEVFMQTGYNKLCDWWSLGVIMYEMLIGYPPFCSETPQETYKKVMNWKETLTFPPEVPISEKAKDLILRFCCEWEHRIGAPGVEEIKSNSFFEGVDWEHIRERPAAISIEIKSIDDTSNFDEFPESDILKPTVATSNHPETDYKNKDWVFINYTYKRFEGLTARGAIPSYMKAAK
UniProt O00506, sequence (whole entry, looked up): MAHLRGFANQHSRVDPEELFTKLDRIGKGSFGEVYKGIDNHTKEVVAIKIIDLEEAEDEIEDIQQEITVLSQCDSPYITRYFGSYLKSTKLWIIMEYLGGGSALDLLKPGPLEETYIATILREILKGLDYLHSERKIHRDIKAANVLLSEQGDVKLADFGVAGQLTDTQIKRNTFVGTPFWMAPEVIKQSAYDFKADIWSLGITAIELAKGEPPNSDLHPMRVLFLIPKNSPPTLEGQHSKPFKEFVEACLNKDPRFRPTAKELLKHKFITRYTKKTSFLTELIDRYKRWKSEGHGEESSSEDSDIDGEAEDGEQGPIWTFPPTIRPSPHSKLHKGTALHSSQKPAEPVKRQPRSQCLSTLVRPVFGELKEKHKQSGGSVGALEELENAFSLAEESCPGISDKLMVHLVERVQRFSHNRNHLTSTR
UniProt P51817, sequence (whole entry, looked up): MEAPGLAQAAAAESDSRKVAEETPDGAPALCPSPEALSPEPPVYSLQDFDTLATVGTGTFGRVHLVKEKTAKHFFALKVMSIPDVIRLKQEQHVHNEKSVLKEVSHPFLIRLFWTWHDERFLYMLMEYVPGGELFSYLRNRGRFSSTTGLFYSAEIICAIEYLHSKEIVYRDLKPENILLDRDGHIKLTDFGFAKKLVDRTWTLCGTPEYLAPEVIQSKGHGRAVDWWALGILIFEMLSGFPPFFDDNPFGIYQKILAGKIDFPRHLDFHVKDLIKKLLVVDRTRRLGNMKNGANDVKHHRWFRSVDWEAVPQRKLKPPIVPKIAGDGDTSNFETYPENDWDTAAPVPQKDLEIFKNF
UniProt Q9UBE8, sequence (whole entry, looked up): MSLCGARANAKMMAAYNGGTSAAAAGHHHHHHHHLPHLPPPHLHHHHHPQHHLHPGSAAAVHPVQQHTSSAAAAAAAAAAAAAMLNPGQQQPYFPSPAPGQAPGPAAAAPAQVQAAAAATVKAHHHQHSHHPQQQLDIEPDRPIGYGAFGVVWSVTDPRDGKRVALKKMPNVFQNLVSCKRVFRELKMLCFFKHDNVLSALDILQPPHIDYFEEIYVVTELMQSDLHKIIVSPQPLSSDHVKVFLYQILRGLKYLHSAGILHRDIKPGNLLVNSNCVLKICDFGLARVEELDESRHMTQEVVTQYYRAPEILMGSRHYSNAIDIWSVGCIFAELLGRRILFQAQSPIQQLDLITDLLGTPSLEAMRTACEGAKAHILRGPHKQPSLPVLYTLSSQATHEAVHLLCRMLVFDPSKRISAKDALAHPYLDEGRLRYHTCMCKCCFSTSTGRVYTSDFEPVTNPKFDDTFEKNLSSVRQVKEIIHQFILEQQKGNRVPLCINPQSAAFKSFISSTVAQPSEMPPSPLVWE
UniProt P15056, sequence (whole entry, looked up): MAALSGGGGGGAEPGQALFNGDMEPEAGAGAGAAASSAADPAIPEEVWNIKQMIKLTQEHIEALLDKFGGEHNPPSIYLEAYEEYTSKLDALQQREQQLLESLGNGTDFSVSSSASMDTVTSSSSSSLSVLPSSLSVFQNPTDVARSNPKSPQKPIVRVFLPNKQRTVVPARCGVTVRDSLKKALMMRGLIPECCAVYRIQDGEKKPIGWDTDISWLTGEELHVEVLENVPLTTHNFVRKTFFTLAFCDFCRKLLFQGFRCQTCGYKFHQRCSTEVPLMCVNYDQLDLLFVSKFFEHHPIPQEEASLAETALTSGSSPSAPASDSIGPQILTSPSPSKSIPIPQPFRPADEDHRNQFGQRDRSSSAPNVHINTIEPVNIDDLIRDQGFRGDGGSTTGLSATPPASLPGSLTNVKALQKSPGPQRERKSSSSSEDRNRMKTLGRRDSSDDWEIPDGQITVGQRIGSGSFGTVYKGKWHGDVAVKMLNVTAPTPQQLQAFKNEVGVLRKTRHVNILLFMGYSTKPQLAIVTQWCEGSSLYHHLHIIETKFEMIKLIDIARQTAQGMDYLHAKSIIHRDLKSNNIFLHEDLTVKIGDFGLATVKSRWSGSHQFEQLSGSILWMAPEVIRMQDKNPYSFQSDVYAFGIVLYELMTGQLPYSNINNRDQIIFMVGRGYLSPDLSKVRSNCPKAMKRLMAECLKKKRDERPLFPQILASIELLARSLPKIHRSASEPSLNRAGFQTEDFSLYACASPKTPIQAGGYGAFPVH
UniProt O00444, sequence (whole entry, looked up): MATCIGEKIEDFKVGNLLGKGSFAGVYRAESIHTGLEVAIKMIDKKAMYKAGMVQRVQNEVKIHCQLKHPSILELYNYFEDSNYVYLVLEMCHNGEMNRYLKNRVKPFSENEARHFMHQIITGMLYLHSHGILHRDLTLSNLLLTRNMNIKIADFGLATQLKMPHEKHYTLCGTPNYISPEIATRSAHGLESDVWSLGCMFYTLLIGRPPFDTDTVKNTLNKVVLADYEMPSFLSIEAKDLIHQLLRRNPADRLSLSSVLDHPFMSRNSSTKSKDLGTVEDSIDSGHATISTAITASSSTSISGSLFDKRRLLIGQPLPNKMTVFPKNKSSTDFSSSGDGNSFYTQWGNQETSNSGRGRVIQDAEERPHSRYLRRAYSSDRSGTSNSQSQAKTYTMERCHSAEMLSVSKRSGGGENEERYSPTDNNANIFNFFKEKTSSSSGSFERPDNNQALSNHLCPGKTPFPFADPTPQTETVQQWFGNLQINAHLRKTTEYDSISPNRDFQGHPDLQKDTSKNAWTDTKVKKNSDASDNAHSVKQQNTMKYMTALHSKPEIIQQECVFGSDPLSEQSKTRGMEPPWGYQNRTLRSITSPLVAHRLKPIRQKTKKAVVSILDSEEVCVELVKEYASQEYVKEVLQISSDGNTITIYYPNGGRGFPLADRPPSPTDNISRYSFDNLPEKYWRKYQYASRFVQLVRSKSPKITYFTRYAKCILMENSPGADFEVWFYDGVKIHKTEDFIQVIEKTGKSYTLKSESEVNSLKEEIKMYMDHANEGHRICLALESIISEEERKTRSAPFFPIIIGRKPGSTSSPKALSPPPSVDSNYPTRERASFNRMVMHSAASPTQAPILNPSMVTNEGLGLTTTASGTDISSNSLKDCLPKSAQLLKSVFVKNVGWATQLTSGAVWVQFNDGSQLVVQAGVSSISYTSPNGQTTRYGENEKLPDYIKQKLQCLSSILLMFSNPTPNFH

Study 1
Compound: CN(C)CCCn1cc(C2=C(c3c[nH]c4ccccc34)C(=O)NC2=O)c2ccccc21
Observed: enzyme activity
Mode: inhibitor
Tested at: 0.5 µM
Relative to: control
Measurement: remaining activity
Proto-oncogene tyrosine-protein kinase Src (SRC, Homo sapiens, UniProt P12931): 92.6%
Vascular endothelial growth factor receptor 3 (FLT4, Homo sapiens, UniProt P35916): 30.6%
MAP/microtubule affinity-regulating kinase 3 (MARK3, Homo sapiens, UniProt P27448): 72%
Serine/threonine-protein kinase 25 (STK25, Homo sapiens, UniProt O00506): 69.7%
Serine/threonine-protein kinase NLK (NLK, Homo sapiens, UniProt Q9UBE8): 94%
Insulin receptor (INSR, Homo sapiens, UniProt P06213): 88.9%
Cyclin-dependent kinase 3, with cyclin E (CDK3, Homo sapiens, UniProt Q00526): 93.2%
cAMP-dependent protein kinase catalytic subunit PRKX (PRKX, Homo sapiens, UniProt P51817): 85.3%
Serine/threonine-protein kinase TAO3 (TAOK3, Homo sapiens, UniProt Q9H2K8): 67.6%
ALK tyrosine kinase receptor (ALK, Homo sapiens, UniProt Q9UM73): 87%
Serine/threonine-protein kinase Nek11 (NEK11, Homo sapiens, UniProt Q8NG66): 104%
Tyrosine-protein kinase Fgr (FGR, Homo sapiens, UniProt P09769): 90.9%
Homeodomain-interacting protein kinase 1 (HIPK1, Homo sapiens, UniProt Q86Z02): 96.6%
LIM domain kinase 1 (LIMK1, Homo sapiens, UniProt P53667): 94.7%
Tyrosine-protein kinase Fer (FER, Homo sapiens, UniProt P16591): 69.8%
PAS domain-containing serine/threonine-protein kinase (PASK, Homo sapiens, UniProt Q96RG2): 67%
Serine/threonine-protein kinase MRCK alpha (CDC42BPA, Homo sapiens, UniProt Q5VT25): 97.1%
Tyrosine-protein kinase Fyn (FYN, Homo sapiens, UniProt P06241): 88.3%
RAC-alpha serine/threonine-protein kinase (AKT1, Homo sapiens, UniProt P31749): 93.5%
Megakaryocyte-associated tyrosine-protein kinase (MATK, Homo sapiens, UniProt P42679): 100%

Study 2
Host: mouse
Sample: microsomes or S9
Tested at: 2 µM
Time: 0.5 h
Measurement: remaining compound
O=C(Nc1ccc2c(c1)C(=O)N1CCC[C@H]1C(=O)N2)c1cc(-c2ccc3c(c2)CCO3)n[nH]1: 84.7%
CCN(CC)c1ccc(-c2nnc(-c3ccc(N(CC)CC)cc3)o2)cc1: 68.9%
CCC(CC)C(=O)Nc1c2c(nc3c1CCC3)CCCC2: 26.8%
COC(=O)N(C)CCCC1(C)C(=O)N(C)c2ccc(O)cc21 (centres unmarked): 24.5%
c1ccc(-c2nc3cccnc3nc2N2CCCCC2)cc1: < 1%
CCC(C)NC(=O)c1ccc2c(=O)n(C(C)C)c3nn(CC(=O)Nc4ccc(C(C)C)cc4)c(=O)n3c2c1 (centres unmarked): 56.9%
CC(C)c1c(Cl)nc(N(C)C)nc1N1CCN(S(C)(=O)=O)CC1: 24.6%
Cc1cc(C)n(CCCN(C)Cc2cn(C(C)C)c3cc(F)ccc23)n1: 2.76%
CCC1(N2CCN(C(=O)c3sccc3C)CC2)CCN(S(C)(=O)=O)C1 (centres unmarked): 18.2%
CC(c1ccc([S+](C)[O-])cc1)N(C)C(=O)C1CCC(c2ccccc2)CC1 (centres unmarked): 26.8%
CCCOc1cccc([C@@H]2c3ccc(OC)cc3OC(=O)[C@H]2C(C)(C)O)c1: 18.1%

Study 3
Cell line: A-375
Tested at: 100 µM
Time: 18 h
Measurement: viability
O=C(Nc1c(Cl)cncc1Cl)c1ccc(OC(F)F)c(OCC2CC2)c1: 60.9%
CC(=O)Oc1c(C)c(C)c2c(c1C)CCC(C)(CCC[C@H](C)CCC[C@H](C)CCCC(C)C)O2 (some centres unmarked): 98.2%
C[C@@H](O[C@H]1OCCN(Cc2nc(O)n(P(=O)(O)O)n2)[C@H]1c1ccc(F)cc1)c1cc(C(F)(F)F)cc(C(F)(F)F)c1: 7.83%
CC(=O)OCC(=O)[C@@]1(O)CC[C@H]2[C@@H]3CCC4=CC(=O)C=C[C@]4(C)[C@H]3[C@@H](O)C[C@@]21C: 97.6%
COc1ccc(NS(=O)(=O)c2ccc(N)cc2)nn1: 103%
CCCCNc1cc(C(=O)O)cc(S(N)(=O)=O)c1Oc1ccccc1: 109%
Nc1ncnc2c1ncn2[C@@H]1O[C@H](CO)[C@@H](O)[C@@H]1O: 92.9%
Cc1nc(Nc2ncc(C(=O)Nc3c(C)cccc3Cl)s2)cc(N2CCN(CCO)CC2)n1: 22.5% and 25.7%
Nc1nc(CC(=O)Nc2ccc(CCNC[C@H](O)c3ccccc3)cc2)cs1: 98.7%
CO[C@@]1(NC(=O)Cc2cccs2)C(=O)N2C(C(=O)O)=C(COC(N)=O)CS[C@@H]21: 90.2%
C[C@@H]1O[C@@H](O[C@H]2[C@H](Oc3cc(O)c4c(c3)O[C@H](c3ccc(O)cc3)CC4=O)O[C@H](CO)[C@@H](O)[C@@H]2O)[C@H](O)[C@H](O)[C@H]1O: 89.4%

Study 4
SMILES: CS(=O)(=O)c1cc(C2(NC(=O)c3cncc4c3cnn4-c3ccc(F)cc3)CC2)ccn1
Observed: cell-free assay
Method: competition with immobilised ligand
Tested at: 1 µM
Measurement: remaining binding
Receptor-type tyrosine-protein kinase FLT3 (FLT3, Homo sapiens, UniProt P36888, D835V/ITD): 70%
Mitogen-activated protein kinase kinase kinase 11 (MAP3K11, Homo sapiens, UniProt Q16584): 100%
Receptor-type tyrosine-protein kinase FLT3 (FLT3, Homo sapiens, UniProt P36888, N841I): 100%
Ribosomal protein S6 kinase alpha-3, N-terminal kinase domain (RPS6KA3, Homo sapiens, UniProt P51812): 99%
Receptor-type tyrosine-protein kinase FLT3 (FLT3, Homo sapiens, UniProt P36888, D835H): 100%
Protein kinase C delta type (PRKCD, Homo sapiens, UniProt Q05655): 100%
G protein-coupled receptor kinase 4 (GRK4, Homo sapiens, UniProt P32298): 100%
Serine/threonine-protein kinase TBK1 (TBK1, Homo sapiens, UniProt Q9UHD2): 94%
Serine/threonine-protein kinase B-raf (BRAF, Homo sapiens, UniProt P15056): 87%
Mitogen-activated protein kinase kinase kinase 7 (MAP3K7, Homo sapiens, UniProt O43318): 94%
Serine/threonine-protein kinase 38 (STK38, Homo sapiens, UniProt Q15208): 100%
Phosphorylase b kinase gamma catalytic chain, liver/testis isoform (PHKG2, Homo sapiens, UniProt P15735): 100%
Mitogen-activated protein kinase kinase kinase 9 (MAP3K9, Homo sapiens, UniProt P80192): 100%
Serine/threonine-protein kinase PLK4 (PLK4, Homo sapiens, UniProt O00444): 85%
Serine/threonine-protein kinase SIK3 (SIK3, Homo sapiens, UniProt Q9Y2K2): 81%
Phosphatidylinositol 4,5-bisphosphate 3-kinase catalytic subunit alpha isoform (PIK3CA, Homo sapiens, UniProt P42336, E545A): 100%
SRSF protein kinase 3 (SRPK3, Homo sapiens, UniProt Q9UPE1): 100%
Serine/threonine-protein kinase RIO1 (RIOK1, Homo sapiens, UniProt Q9BRS2): 80%
Tyrosine-protein kinase ABL1, non-phosphorylated (ABL1, Homo sapiens, UniProt P00519, Q252H): 80%
Leucine-rich repeat serine/threonine-protein kinase 2 (LRRK2, Homo sapiens, UniProt Q5S007): 43%

For quick reference, copied from above (study 2):
O=C(Nc1ccc2c(c1)C(=O)N1CCC[C@H]1C(=O)N2)c1cc(-c2ccc3c(c2)CCO3)n[nH]1: 84.7%
CCN(CC)c1ccc(-c2nnc(-c3ccc(N(CC)CC)cc3)o2)cc1: 68.9%
CCC(CC)C(=O)Nc1c2c(nc3c1CCC3)CCCC2: 26.8%
COC(=O)N(C)CCCC1(C)C(=O)N(C)c2ccc(O)cc21 (centres unmarked): 24.5%
